Assay results collected from several papers.
Compare with care: the assays were run in different laboratories. Several values in a cell are separate wells, animals, samples, runs or records. ± marks the error that the study gave.
BCHE: Cholinesterase (BCHE, Equus caballus, UniProt P81908)
UniProt P81908, sequence (whole entry, looked up): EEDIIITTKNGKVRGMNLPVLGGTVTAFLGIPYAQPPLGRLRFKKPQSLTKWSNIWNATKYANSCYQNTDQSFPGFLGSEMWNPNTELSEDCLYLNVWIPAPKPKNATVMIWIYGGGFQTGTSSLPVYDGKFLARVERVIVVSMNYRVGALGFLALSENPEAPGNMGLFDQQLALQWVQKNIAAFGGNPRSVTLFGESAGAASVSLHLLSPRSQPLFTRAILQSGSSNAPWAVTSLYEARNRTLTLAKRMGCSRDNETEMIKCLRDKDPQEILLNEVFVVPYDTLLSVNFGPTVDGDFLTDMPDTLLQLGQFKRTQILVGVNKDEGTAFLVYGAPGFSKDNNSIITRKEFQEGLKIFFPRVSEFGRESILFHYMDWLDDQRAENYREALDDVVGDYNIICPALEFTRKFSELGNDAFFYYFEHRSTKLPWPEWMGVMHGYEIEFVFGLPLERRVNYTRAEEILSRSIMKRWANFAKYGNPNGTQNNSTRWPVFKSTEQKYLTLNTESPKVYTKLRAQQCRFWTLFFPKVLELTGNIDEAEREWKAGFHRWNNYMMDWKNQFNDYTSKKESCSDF
UniProt Q07002, sequence (whole entry, looked up): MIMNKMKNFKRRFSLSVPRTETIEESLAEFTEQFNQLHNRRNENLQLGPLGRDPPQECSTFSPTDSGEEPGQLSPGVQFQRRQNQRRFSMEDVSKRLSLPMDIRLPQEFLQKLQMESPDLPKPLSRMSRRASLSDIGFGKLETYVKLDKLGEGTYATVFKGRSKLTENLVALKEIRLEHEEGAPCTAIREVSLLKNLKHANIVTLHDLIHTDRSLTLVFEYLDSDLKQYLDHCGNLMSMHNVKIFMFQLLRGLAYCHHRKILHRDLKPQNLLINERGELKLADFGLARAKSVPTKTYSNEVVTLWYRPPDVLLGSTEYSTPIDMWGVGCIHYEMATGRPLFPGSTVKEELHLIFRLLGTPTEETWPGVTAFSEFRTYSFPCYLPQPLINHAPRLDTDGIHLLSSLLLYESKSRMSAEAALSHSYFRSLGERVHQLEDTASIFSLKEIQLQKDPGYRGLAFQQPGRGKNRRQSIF
UniProt P12822, sequence (whole entry, looked up): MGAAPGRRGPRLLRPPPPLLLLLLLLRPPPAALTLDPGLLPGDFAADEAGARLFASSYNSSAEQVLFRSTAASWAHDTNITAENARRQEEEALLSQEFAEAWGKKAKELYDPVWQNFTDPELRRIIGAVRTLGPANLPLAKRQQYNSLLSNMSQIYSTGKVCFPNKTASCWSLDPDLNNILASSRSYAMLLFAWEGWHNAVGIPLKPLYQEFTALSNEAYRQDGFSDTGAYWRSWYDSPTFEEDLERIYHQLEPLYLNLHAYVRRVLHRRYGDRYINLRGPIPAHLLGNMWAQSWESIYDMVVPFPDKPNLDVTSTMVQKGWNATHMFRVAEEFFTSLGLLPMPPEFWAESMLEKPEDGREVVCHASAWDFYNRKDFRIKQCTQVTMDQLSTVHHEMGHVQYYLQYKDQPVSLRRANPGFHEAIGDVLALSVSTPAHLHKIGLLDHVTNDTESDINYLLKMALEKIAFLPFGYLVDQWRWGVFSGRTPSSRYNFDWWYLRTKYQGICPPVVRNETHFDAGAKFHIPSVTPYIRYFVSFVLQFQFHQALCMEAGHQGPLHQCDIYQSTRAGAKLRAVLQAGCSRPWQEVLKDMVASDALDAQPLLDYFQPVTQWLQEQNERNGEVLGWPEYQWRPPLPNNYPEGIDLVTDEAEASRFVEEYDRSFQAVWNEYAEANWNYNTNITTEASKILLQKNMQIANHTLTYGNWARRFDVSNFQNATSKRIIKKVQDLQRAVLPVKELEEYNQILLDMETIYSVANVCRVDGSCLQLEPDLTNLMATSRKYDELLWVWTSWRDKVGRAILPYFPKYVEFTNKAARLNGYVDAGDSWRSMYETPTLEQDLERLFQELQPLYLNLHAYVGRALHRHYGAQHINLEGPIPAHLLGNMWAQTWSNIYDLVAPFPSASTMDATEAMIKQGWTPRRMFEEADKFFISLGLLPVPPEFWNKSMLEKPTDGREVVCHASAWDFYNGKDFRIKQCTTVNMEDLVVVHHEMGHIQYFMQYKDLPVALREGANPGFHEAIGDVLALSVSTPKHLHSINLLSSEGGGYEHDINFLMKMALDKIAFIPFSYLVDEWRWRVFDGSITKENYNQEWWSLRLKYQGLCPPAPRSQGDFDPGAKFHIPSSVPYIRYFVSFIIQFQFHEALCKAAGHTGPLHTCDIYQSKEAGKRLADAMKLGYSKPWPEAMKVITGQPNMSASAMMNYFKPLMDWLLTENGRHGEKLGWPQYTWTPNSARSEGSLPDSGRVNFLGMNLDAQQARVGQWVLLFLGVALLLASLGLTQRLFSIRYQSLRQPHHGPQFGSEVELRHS
UniProt Q08881, sequence (whole entry, looked up): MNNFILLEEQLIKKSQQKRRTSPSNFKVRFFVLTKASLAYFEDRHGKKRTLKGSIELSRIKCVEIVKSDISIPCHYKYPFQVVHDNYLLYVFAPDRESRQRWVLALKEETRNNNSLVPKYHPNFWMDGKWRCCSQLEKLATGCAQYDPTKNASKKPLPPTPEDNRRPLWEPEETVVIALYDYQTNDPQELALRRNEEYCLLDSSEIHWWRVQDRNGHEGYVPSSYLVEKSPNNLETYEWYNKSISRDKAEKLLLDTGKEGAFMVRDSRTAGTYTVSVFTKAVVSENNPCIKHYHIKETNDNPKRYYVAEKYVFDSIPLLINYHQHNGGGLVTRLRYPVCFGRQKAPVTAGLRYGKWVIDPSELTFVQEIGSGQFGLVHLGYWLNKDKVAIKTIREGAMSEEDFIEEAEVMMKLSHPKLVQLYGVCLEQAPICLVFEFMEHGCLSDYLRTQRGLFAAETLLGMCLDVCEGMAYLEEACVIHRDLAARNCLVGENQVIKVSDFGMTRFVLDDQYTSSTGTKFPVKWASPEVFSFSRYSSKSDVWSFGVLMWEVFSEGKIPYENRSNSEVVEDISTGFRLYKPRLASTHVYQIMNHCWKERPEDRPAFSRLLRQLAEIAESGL
UniProt P49840, sequence (whole entry, looked up): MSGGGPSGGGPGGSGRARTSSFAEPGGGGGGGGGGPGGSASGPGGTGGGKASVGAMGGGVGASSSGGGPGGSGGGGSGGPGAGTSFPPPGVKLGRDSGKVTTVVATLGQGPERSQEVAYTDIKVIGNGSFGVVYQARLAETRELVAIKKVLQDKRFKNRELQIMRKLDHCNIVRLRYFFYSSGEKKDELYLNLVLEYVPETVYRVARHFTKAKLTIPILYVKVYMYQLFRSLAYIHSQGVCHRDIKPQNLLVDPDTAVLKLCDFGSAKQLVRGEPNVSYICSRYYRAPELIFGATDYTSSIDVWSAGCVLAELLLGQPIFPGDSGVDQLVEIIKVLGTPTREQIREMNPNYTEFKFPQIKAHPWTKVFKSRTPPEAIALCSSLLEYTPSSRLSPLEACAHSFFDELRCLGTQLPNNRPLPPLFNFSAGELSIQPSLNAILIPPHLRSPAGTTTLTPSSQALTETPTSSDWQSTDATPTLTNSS
UniProt O00444, sequence (whole entry, looked up): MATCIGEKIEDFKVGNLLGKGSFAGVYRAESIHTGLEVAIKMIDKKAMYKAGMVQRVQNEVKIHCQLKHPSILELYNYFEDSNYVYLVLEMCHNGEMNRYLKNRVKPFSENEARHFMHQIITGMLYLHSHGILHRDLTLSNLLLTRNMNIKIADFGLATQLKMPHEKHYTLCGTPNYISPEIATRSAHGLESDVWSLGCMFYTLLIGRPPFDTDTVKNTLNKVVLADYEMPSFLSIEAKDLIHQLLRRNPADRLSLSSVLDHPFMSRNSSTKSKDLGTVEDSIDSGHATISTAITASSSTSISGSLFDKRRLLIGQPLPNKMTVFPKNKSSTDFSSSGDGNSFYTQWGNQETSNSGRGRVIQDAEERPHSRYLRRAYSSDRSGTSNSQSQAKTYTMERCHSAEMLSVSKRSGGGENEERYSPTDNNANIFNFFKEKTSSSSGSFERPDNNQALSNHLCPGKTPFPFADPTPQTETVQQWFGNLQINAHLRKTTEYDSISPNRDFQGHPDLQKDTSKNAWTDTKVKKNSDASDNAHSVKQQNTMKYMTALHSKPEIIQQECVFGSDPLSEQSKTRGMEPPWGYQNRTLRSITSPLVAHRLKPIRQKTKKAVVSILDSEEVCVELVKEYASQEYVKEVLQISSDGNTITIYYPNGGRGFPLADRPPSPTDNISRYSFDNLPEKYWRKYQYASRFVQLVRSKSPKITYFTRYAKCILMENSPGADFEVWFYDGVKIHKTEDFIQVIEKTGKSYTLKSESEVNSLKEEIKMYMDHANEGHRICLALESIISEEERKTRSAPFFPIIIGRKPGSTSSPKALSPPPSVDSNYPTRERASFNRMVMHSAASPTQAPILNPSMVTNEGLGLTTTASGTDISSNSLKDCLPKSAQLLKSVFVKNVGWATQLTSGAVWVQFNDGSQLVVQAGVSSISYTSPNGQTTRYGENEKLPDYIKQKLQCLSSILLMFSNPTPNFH
UniProt P14867, sequence (whole entry, looked up): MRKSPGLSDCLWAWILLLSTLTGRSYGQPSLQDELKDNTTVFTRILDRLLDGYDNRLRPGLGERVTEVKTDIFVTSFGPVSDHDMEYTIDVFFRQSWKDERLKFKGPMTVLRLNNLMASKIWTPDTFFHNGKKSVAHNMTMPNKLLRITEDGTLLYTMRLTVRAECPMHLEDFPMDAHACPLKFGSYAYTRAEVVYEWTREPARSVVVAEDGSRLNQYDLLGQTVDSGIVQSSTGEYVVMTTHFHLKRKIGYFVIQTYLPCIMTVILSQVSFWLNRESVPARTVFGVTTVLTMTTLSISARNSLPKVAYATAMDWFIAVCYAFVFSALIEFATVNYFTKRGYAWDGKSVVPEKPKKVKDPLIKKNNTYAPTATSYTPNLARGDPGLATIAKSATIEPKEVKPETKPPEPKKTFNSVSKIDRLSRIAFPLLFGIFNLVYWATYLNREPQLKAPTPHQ

`N[C@H](C(=O)N1CCCC1)C1CCN(c2nccc3c(-c4ncc(Cl)cc4Cl)cccc23)CC1` gave an inhibition of -16.7% (MAP4K4 (Homo sapiens, UniProt O95819); kinase activity, inhibitor; 10 µM, together with: ATP 1 mM).
The inhibition of `O=C(CN1CN(c2ccccc2)C2(CCN(C(=O)c3cnc4[nH]ncc4c3)CC2)C1=O)NCC(F)(F)F` is reported as less than 50% (STK24 (Homo sapiens, UniProt Q9Y6E0); inhibitor; concentration not given).
For `Cc1cc(Oc2nc(N3CC[C@@H](c4ccncc4)C3)ncc2F)[nH]n1`, the normalised growth was 78% and 81% and 83% (Mycobacterium tuberculosis; OD; H37Rv PurF CRISPRi knockdown; 0.000244 µM, together with: anhydrotetracycline low).
The inhibition of `CC(=O)NC[C@@H]1[C@@H](O)C[C@H]2[C@H](O)C[C@@H](CO)N12` is reported as 33.9% (Spodoptera litura β-N-acetylglucosaminidase; crude enzyme; 0.214 µM, run 2, together with: p-nitrophenyl GlcNAc).
The inhibition of `C1COCCN1` is reported as 39.2% (BCHE; enzyme activity, inhibitor, Ellman; 20 µM).
The inhibition of `Cc1cc(-c2ccc3ccccc3c2)nnc1NCCN1CCN(C)CC1` is reported as 5.4% (Slc6a2 (Rattus norvegicus, UniProt Q9WTR4); monoamine uptake, inhibitor; rat synaptosomes; 10000 nM).
With `C/C(=N\OCCCN1CCCCC1)c1ccc(C(F)(F)F)cc1` the inhibition was 23.7% (GABA-A receptor; alpha-1/beta-2/gamma-2 (Homo sapiens, UniProt P14867+P18507+P47870); membrane potential, antagonist, FLIPR membrane potential; 10 µM).
`NC1CCCCC1` has an inhibition of 32.1% (BCHE; enzyme activity, inhibitor, Ellman; 20 µM).
`Cc1cc(C(=O)Nc2nc3cccc(C)c3n2[C@H]2CCCCN(C(=O)/C=C/CN(C)C)C2)ccn1`: “cell cycle distribution” 18.6% and 18.7% and 20.9% (Trypanosoma brucei; propidium iodide flow cytometry, item: Multi phase; bloodstream parental line; concentration not given).
`N=C(N)NCCC[C@@H]1NC(=O)[C@H](CCCCNC(=O)CCC(NC(=S)Nc2ccc(CC3CN(CC(=O)O)CCN(CC(=O)O)CCN(CC(=O)O)CCN3CC(=O)O)cc2)C(=O)NCCCC[C@@H]2NC(=O)[C@@H](Cc3ccc(O)cc3)NC(=O)[C@H](CC(=O)O)NC(=O)CNC(=O)[C@H](CCCNC(=N)N)NC2=O)NC(=O)[C@@H](Cc2ccc(O)cc2)NC(=O)[C@H](CC(=O)O)NC(=O)CNC1=O` (stereo partly drawn) [scandium-44 labelled] gave a tissue uptake of 0.025 ± 0.004 %ID/g (ex vivo γ-counting; female athymic nude mice, U-87 MG xenograft, bone; intravenous, 4 h, together with: cRGD 50 mg/kg blocking).
The inhibition of `O=C(O)c1ccccc1/C=N/Nc1nc(-c2ccccc2Cl)cs1` is reported as 22.4% (ITK (Homo sapiens, UniProt Q08881); enzyme activity, inhibitor; 1 µM).
The inhibition of `CCCCCCCCCCCCCCCCCC(=O)NC[C@H]1CC[C@H](C(=O)N[C@@H](CCC(=O)NCCCOCCOCCOCCCNC(=O)COCC(=O)N[C@@H](Cc2ccc(O)cc2)C(=O)NC(C)(Cc2ccccc2)C(=O)N[C@@H](CC(C)C)C(=O)N[C@@H](CCCC)C(=O)N[C@@H](CCCNC(=N)N)C(=O)N2CCC[C@H]2C(=O)N[C@@H](CCCNC(=N)NC)C(=O)N[C@@H](CC(N)=O)C(N)=O)C(=O)O)CC1` (stereo partly drawn) is reported as 53% (NMBR (Homo sapiens, UniProt P28336); antagonist, DiscoverX GPCR panel; 1 µM).
For `Nc1ccc(/C=C/C(=O)N2CCc3c(oc4c(-c5ccc(F)cc5)cc(-c5ccc(C(=O)N6CCC(F)(F)CC6)cn5)cc34)C2)cn1`, the remaining binding was 88% (PLK4 (Homo sapiens, UniProt O00444); binding, competition with immobilised ligand; 1 µM).
With `Cc1ccc2c(n1)c(-c1cccc(S(C)(=O)=O)c1)c(C)n2C/C(F)=C/CN` the inhibition was 3% (ACE (Oryctolagus cuniculus, UniProt P12822); ligand displacement; 10 µM).
`CC(C)CC(O)(CC(C)C)c1cn(C(=O)N2CCCC2)nn1` gave an activity ratio-of-ratios of 1.1 (Platelet-activating factor acetylhydrolase IB subunit alpha1 (Pafah1b3, Mus musculus, UniProt Q61205); probe labelling, inhibitor, item: Pafah1b3; mouse, brain; i.p., 0.8 mg/kg, 4 h, protein level; reference: treated over vehicle mice, lower = stronger inhibition).
`COc1ccccc1-c1n[nH]c2nc(NC3CCN(C(=O)Cc4ccc(F)cc4F)CC3)ncc12` has a relative abundance of 1 (bead binding, competition bead pull-down, item: LINJ.35.1820; Leishmania donovani axenic amastigote extract; 10 µM; reference: vehicle).
`CC(C)[C@H]1NC(=O)C[C@H]2/C=C/CCSSC[C@@H](NC1=O)C(=O)N[C@H](Cc1cccc3ccccc13)C(=O)NCC(=O)O2` has an inhibition of 1.1% (GSK3A (Homo sapiens, UniProt P49840); enzyme activity, inhibitor; 10 µM).
The inhibition of `C[C@H](NCc1ccc(-c2ccc(C(F)(F)F)cc2)cc1)C(N)=O` is reported as 0% (MAP2K2 (Homo sapiens, UniProt P36507); cell-free assay, competition with immobilised ligand; 1 µM).
`O=C1NC(=O)c2c1c1cc(F)c[n+]3c1c1c2c2cc(O)ccc2[n]1[Ru-4]312([N]=C=S)[S+]3CC[S+]1CC[S+]2CC3` (stereo not drawn) gave a remaining activity of 114% (EGFR (Homo sapiens, UniProt P00533); enzyme activity; 100 nM, human enzyme, together with: 10 µM ATP; reference: untreated).
For `Cc1cc(OCC(=O)NCCNC(=O)c2cccc(COc3ccccc3C(N)=O)c2)c2c3c(c(=O)oc2c1)CCC3`, the inhibition was 79% (PARP2 (Homo sapiens, UniProt Q9UGN5); enzyme activity, inhibitor; 50 nM).
The inhibition of `NCC1CCN(Cc2cccc(F)c2)CC1` is reported as 55.1% (BCHE; enzyme activity, inhibitor, Ellman; 20 µM).
`COc1ccc(F)cc1S(=O)(=O)Nc1cnc2c(c1)C(=O)NCCO2` gave an inhibition of 13% (NMDA receptor Polyamine site; radioligand binding; 10 µM).
For `CC[C@H](C)[C@H](NC(=O)[C@H](CO)NC(=O)[C@H](Cc1ccc(O)cc1)NC(=O)[C@H](Cc1ccc(O)cc1)NC(=O)[C@H](CC(N)=O)NC(=O)CNC(=O)[C@H](CO)NC(=O)[C@H](Cc1ccc(O)cc1)NC(=O)[C@H](CO)NC(=O)[C@H](CO)NC(=O)[C@H](CC(N)=O)NC(=O)COCCOCCNC(=O)CN1CCN(CC(=O)O)CCN(CC(=O)O)CCN(CC(=O)O)CC1)C(=O)N[C@@H](CC(C)C)C(N)=O` [copper-64 labelled], “maximum pancreas uptake” read 24.2 %IA/cc (dynamic PET; tamoxifen-induced PDAC mouse model, pancreas; 1.9 min, CLDN4-expressing tumours).
For `COc1ccccc1-c1n[nH]c2nc(N[C@H]3CC[C@H](NS(=O)(=O)CC(C)C)CC3)ncc12`, the relative abundance was 1.05 (bead binding, competition bead pull-down, item: LINJ.34.0710; Leishmania donovani extract; 10 µM; reference: vehicle).
With `OC[C@H]1O[C@@H](Oc2cccc(-c3ccccc3)c2)[C@H](O)[C@@H](O)[C@H]1O` the inhibition was 56.9 ± 6.2% (Adhesin FmlH, lectin domain (Escherichia coli, UniProt Q1RBS0); binding to desialylated mucin, ELISA competition; UPEC UTI89; 100 µM).
The inhibition of `CN(C)[C@H]1C[C@@]23CC[C@@]4(O2)C(=CC[C@]2(C)[C@@H](c5ccc6ccncc6c5)CC[C@H]24)C=C3[C@@H](O)[C@@H]1O` is reported as -7.8% (TLK1 (Homo sapiens, UniProt Q9UKI8); ATP probe labelling, inhibitor, KiNativ profiling; 1 µM).
The inhibition of `CN(/N=C/c1ccccc1C(=O)O)c1nc(-c2ccccc2Cl)cs1` is reported as -16.2% (Cyclin-dependent kinase 18, with cyclin Y (CDK18, Homo sapiens, UniProt Q07002); enzyme activity, inhibitor; 1 µM).
For `O=C1NC2(CC2)COc2ncc(F)cc2[C@H]2COCCN2c2ccn3ncc1c3n2`, “organ-to-brain weight ratio” read 107 ± 10.3% (Sprague-Dawley rat, female, kidneys; oral, 10 mg/kg/day, 4 weeks, end of treatment).
With `CN[C@@H]1[C@H](O)[C@H](NC)[C@H]2O[C@]3(O)[C@H](O[C@@H]2[C@H]1O)O[C@H](C)C[C@H]3NC(=O)Cc1ccc(Cl)cn1` the inhibition was 2% (BDKRB2 (Homo sapiens, UniProt P30411); ligand displacement, radioligand; 10 µM).
With `CS(C)(=O)=Nc1ccc(-c2ccc(-c3nc4cc(O[C@@H]5CO[C@H]6[C@@H]5OC[C@H]6O)[nH]c4cc3F)cc2)cc1` the inhibition was -3% (Cyclin-dependent kinase 1, with cyclin B (CDK1, Homo sapiens, UniProt P06493); enzyme activity, inhibitor; 10 µM).

A few entries again:
`N[C@H](C(=O)N1CCCC1)C1CCN(c2nccc3c(-c4ncc(Cl)cc4Cl)cccc23)CC1` gave an inhibition of -16.7% (MAP4K4 (Homo sapiens, UniProt O95819); kinase activity, inhibitor; 10 µM, together with: ATP 1 mM).
The inhibition of `CN(/N=C/c1ccccc1C(=O)O)c1nc(-c2ccccc2Cl)cs1` is reported as -16.2% (Cyclin-dependent kinase 18, with cyclin Y (CDK18, Homo sapiens, UniProt Q07002); enzyme activity, inhibitor; 1 µM).
